Published values of several laboratories.
Each numbered part is a random draw from the data of one study; scales do not carry over between parts. Changes are numbered by the printed parent chain.

Study 1
Target: Interferon regulatory factor 5, full length, phosphomimetic (IRF5, Homo sapiens, UniProt Q13568-2, residues 1-514, S451D/S453D/S456D/S462D)
Method: protein-binding microarray
Form: double-stranded DNA, one strand shown
Sample: in vitro
Tested at: 940 nM top
Setting: 60-bp whole probe
With: salmon DNA 0.4 mg/ml
Relative to: random background probes
Direction: higher = stronger binding
Shared flanks, not repeated: GCCTAGCAC … GTCTTGATTCGCTTGACGCTGCTG
Oligonucleotide	fitted relative affinity [z-score]
GACGAACGGGGGTATCGAGACGTGCTA	2.97
ATATATATATTATATATTTATGTGCTA	0.214
GATGATATCGGGTTTCGAGACGTGCTA	1.79
TCCTTTATGTCCTGTCTACATGTGCTA	0.914
GACGGTATCGGTCTCGAGACGTGCTAG	8.6
TTAGGTTTCGGACTGGGTTCGTGCTAG	7.79
TTAGGTCTCGGACAGGGTTAGTGCTAG	0.942
GACGGTATCGGCCTCGGGACGTGCTAG	4.02
TTAGGACTGGGGTACCGGTTAGTGCTA	0.0351
TTAGTTTTCGGTATCGGTTAGTGCTAG	8.32
GTAGATTTCGGGTTTCGATTAGTGCTA	5.86

Study 2
Target: RNA binding protein fox-1 homolog 2, RRM domain, GST-SBP tag (RBFOX2, Homo sapiens, UniProt O43251-10, residues 100-194)
Method: RNA Bind-n-Seq
Form: RNA
Sample: in vitro
Tested at: 365 nM
Setting: natural RNA segment, single round, ends assumed
Relative to: no-protein control
Direction: higher = stronger binding
Shared flanks, not repeated: GGGAGUUCUACAGUCCGACGAUC … UGGAAUUCUCGGGUGCCAA
Residues (chain): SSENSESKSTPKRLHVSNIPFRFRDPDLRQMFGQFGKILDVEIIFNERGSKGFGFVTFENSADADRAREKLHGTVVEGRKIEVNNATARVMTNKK
Oligonucleotide	RBNS enrichment (R)
UUGGACCCUGAAACAGAACAGGUGAAUGGAUUAUUCUAACAGGUCACCAUCCAUCUUCAAGAAGCUACUUUGAAAGUCUGGCCAGUGUCUAUUCAGGCCCACUGGGAGUU	0.333
AUUGGUCUCAAGCGCCAUCAUACUGGAUAUGAGCAAUUUUAGUAACUGCAAUCUGAUUGAUUAUAUUACAGAAUACAUACAAAAAAACAAAGUUGUCUUACCUGUCAGUG	0.365
AAAGUGUUAGUGAGGGUUAAGCAGGAAUACUAACUGCUCAUUUCUCAGUUCAGUGGAUAUAUGUAUGUAGAGAAAGAGAGGUAAUAUUUUGGGCUCUUAGCUUAGUCUGU	1.09
UUUAAACUCAGGAAUGCACACCUAACUUGUGAAGCAGUAUUAAUGGAUCUGAAAGCAACAAUCGCCAGCCCCUACUGUCGUACCAGUAGAAACCUCAUCUUGGGUACAAG	2.15
GGAGGUGGAGGGAAGCUAAGCAAUAGACAGGAGCCGUCACAGGAAGUCACUGGCAAUACGGGUUUAAAGCAGGUACUUAGAUCACGGUUUUCUCUGUAAGAAAAUAUGGC	0.596
CACCUCUGAGGCUUCUAUCAUAACAGAAUACUGUGUGUGUAAAGGAAUGAGACUGCUUUUAAAGCAACACAUCAGAUCUUCUGCGUCUAAAAUGUAGAGUUUUUUUGAUU	8.27
UCUGGACAGCUCAUUCAAGUGGAUUUUUAACUAUUAGGGAUCACUGCGAAGUUUCGUUGGAUUUUAUUUUAUGUCCUUCAGAGCACCCUCCCCCACCCACUAGGGUCCAG	0.28
UAGGACAGUGGUGACCUUGUCUGUGCCGGUGACUGCACCCUGCAGGUAACAGUGAAAGCUUUUAAGCCUCUGAGCCUCGAGACUGGGGAGAUUGAGUUUAUACCCCCUAG	0.423
AAAUCAUGCUGCCAUGGGUCACACUGGCCUCUCAGGCCCACCCGUCACGGGGAACACACAGCGUUAAGUGUCUUUCCUUUAUUUUUUAAAGAAUCAAUAGCAGCAUCUAA	0.311
CUUAAACAAAAAUUAAAAUCCUCAAUCCAGCUAUGUUAUAUUGAAAAAAUAGAGCCUGAGGGAUCUUUACUAGUUAUAAAGAUACAGAACUCUUUCAAAACCUUUUGAAA	0.4
GGGAAACAUUUUCCUAAGAUGCCCAUGAGAACAGACCAAGAUGUGUACAGCACUAUGAGCAUUAAAAAACCUUCCAGAAUCAAUAAUCCGUGGCAACAUAUCUCUGUAAA	0.461
ACCGGGGUGAGAAGGUCAUCCUUUUUCAGUACUAACGCUGCCGGCACUUCCGCAUCUGCCCGUGGGCGCCCCACAGCUGCCCCUCAGCCGCUGAGAUCCAGUGUCCAAGC	0.502

Study 3
Target: CCNA2, cyclin fold, Cln2 fusion (human)
Method: yeast growth competition, sequencing
Sample: yeast
Setting: strong parent motif
Relative to: not given
Direction: higher = stronger binding
Starting sequence: SCAPER docking peptide (human); SNARRSLNFGGST; partner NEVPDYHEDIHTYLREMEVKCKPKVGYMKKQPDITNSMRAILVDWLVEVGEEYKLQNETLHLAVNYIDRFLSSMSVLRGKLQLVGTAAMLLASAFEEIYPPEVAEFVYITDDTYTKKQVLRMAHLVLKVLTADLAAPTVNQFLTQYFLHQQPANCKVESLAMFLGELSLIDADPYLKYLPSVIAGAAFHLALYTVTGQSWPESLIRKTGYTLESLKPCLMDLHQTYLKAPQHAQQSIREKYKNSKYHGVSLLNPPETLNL
Substitution	normalised enrichment score
T13F	6
S1T	6.57
N8K	6.38
R5W	0.404
S12F	5.9
N8W	6.16
G11S	6.55
T13V	6.25
F9D	0.251
A3F	4.66
L7A	0.868
R4W	1.79
G10M	5.8
N2G	6.82
S12C	6.52
R4T	1.9
S1E	4.09
S12M	5.39

Study 4
Target: ABI1, truncated, D143A, DHFR fusion (Arabidopsis thaliana)
Method: DHFR PCA, deep sequencing
Sample: yeast
Setting: methotrexate growth selection, single substitutions
With: (+)-ABA 0.032 µM
Relative to: wild-type fitted maximum
Direction: higher = stronger binding
Starting sequence: PYL1, truncated, DHFR fusion (Arabidopsis thaliana); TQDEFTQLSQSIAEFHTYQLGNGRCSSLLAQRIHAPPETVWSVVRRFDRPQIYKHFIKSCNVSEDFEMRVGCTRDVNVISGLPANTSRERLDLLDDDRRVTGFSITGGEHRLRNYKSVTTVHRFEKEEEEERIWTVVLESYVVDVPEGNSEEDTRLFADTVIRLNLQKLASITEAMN; partner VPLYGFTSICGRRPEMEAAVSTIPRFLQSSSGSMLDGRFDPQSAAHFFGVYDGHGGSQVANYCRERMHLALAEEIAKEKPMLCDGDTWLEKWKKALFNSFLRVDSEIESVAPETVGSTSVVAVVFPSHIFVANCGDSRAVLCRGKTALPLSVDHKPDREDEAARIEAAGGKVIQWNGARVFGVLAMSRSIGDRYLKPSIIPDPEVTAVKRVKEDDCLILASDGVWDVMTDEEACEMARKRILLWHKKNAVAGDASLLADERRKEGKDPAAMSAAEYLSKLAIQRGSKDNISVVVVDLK
Substitution	relative binding score [%]
C72L	0.208
P37K	0.248
D153G	2.11
S80K	-0.644
Q19T	30.8
D65F	-3.99
V100K	4.73
L91D	-10.1
A170G	-2.06
S9M	31.3
G148R	-0.852
S117P	4.28
V145C	-10.4
A84G	39.5
E125I	33

Study 5
Target: Prothrombin, mature alpha-thrombin (F2, Homo sapiens, UniProt P00734)
Method: aptamer microarray, sandwich
Form: DNA with 2'F-ANA
Sample: in vitro
Tested at: 200 nM
Setting: whole 15-mer aptamer, many near background
With: Cy3 exosite-II aptamer, 400 nM
Direction: higher = stronger binding
Oligonucleotide: GGTTGGTGTGGTTGG
Modification	mean fluorescence intensity [a.u.]
2'F-ANA at 1 3 4 8 11 12	395
2'F-ANA at 2 3 5 6 7 9 12 13 14 15	53.5
2'F-ANA at 3 5 6 7 9 12	231
2'F-ANA at 3 4 5 6 7 8 10 13 14	46.4
2'F-ANA at 1 7 10	52.4
2'F-ANA at 1 2 4 6 8 11 12 13 15	172
2'F-ANA at 1 4 5 7 9 10 14 15	97.8
2'F-ANA at 1 2 5 8 10 12 13 14	49
2'F-ANA at 1 2 3 6 8 9 10 13 14 15	97.6
2'F-ANA at 2 3 5 6 7 13	63.6
2'F-ANA at 2 3 4 6 7 9 10 12 13 15	209
2'F-ANA at 4 5 8 10 12 13	47.3
2'F-ANA at 1 3 4 6 7 8 10 12 13 14	53.6
2'F-ANA at 2 4 5 7 9 13	53.4
2'F-ANA at 1 3 4 8 9 13 15	140
2'F-ANA at 2 4 6 8 9 10 11 12 13 15	78
2'F-ANA at 2 5 10 13 14	45.7
2'F-ANA at 2 3 4 9 13 15	446
2'F-ANA at 2 4 5 8 9 10 13 14 15	48.5
2'F-ANA at 3 4 6 9 11 12	766
2'F-ANA at 2 4 5 6 8 10 11 15	59.8
2'F-ANA at 1 3 10 11 15	78
2'F-ANA at 3 7 9 10 11 12 13	553
2'F-ANA at 1 3 6 7 10 11 12 13 14 15	63.2

Study 6
Target: Sal-like protein 4, full length isoform A (SALL4, Homo sapiens, UniProt Q9UJQ4, residues 1-1053)
Chain of UniProt Q9UJQ4 (whole entry, looked up): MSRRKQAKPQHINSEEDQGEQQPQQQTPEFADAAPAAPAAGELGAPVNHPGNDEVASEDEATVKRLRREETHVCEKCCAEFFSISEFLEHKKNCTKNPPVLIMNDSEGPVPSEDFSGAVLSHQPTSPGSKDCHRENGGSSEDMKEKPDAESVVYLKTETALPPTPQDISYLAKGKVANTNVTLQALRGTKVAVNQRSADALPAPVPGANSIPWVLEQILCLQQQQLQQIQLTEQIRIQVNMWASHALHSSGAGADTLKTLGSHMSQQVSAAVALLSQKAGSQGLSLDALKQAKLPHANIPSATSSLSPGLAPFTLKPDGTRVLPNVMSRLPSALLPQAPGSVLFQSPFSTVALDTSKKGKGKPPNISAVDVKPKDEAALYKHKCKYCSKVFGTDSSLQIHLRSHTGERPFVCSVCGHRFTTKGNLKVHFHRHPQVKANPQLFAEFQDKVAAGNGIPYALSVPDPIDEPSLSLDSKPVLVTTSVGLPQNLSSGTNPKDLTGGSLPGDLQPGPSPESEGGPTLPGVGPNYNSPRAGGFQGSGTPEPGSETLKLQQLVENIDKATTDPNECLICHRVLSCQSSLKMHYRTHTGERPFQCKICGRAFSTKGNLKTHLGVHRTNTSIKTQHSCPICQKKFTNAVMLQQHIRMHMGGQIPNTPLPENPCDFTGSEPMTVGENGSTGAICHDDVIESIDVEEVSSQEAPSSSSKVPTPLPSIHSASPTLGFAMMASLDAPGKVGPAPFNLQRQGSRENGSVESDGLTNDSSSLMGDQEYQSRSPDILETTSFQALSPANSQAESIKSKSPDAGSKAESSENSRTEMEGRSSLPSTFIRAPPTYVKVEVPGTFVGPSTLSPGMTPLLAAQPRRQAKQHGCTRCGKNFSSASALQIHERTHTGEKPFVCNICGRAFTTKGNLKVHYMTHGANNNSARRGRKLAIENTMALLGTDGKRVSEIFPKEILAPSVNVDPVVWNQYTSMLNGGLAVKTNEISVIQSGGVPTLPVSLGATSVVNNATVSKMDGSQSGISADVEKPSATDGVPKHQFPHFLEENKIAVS
Method: universal PBM
Form: double-stranded DNA, one strand shown
Sample: in vitro
Tested at: 600 nM
Setting: 8-mer, flanks averaged, mean of replicates
Direction: higher = stronger binding
Oligonucleotide	E-score
TCTTATCA	0.277
GTGGGGAA	-0.00611
AAGTGATA	0.189
ACCGACCT	-0.187
TAGATGCA	0.0715
GGTATAAC	0.175
AGGCTCAG	-0.173
CCCACCCC	-0.135
ATAGGACC	-0.079
GTTTTGAA	0.282
GAACACGA	0.0845
GACCCGTA	-0.246
CTTACCCC	-0.251
ACTAGGTC	-0.0869
ATCGCTAC	-0.0189
CTTGTCTA	0.129
GCGCCAAA	-0.0625
GTTCGAAA	0.102
CACCGTTA	0.0341

A few entries again (study 4):
Substitution	relative binding score [%]
S80K	-0.644
L91D	-10.1
S9M	31.3
A170G	-2.06
P37K	0.248
